Experimental data pooled from the literature.
Compare with care: the assays were run in different laboratories. Values joined by “and” are separate records of one study, mostly repeats; a detail may differ. Numbers after ± are the reported error.
B1: recombinant human GDNF; sequence looked up; chain SPDKQMAVLPRRERNRQAAAANPENSRGKGRRGQRGKNRGCVLTAIHLNVTDLGLGYETKEELIFRYCSGSCDAAETTYDKILKNLSRNRRLVSDKVGQACCRPIAFDDDLSFLDDNLVYHILRKHSAKRCGCI
B2: interferon gamma; sequence looked up; chain QDPYVKEAENLKKYFNAGHSDVADNGTLFLGILKNWKEESDRKIMQSQIVSFYFKLFKNFKDDQSIQKSVETIKEDMNVKFFNSNKKKRDDFEKLTNYSVTDLNVQRKAIHELIQVMAELSPAAKTGKRKRSQMLFRG

For `GMP synthase (human)`, “log2 fold change” read 0.94 (PP6C (human); co-immunoprecipitation, IP-MS; CYB5R4 knockout cells; concentration not given; baseline: CYB5R4 knockout over parental).
`EKVPESKVIFDANAPVAVRSKVPDSEF`: “interferon gamma secretion” > 1000 pg/mL (Luminex, measured: IFN-γ; peptide, NOD-DR3 mice, peptide-immunized, splenocytes; dose not given, 48 h).
With `YGRKKRRQRRRTPQRSGSISNYRSCQR` the shortened mitochondria was 85.2% (peptide, db/db mice, primary hepatocytes; intraperitoneal, 15 nmol/g/day, 6 days).
Under “PGIC much worse”, `difelikefalin` is recorded as 1.7% (Japanese haemodialysis patients with pruritus; intravenous, 1.0 µg/kg, 8 weeks).
`human FABP5`: “log2 fold change” 1.09 (PP6C (human); co-immunoprecipitation, IP-MS; CYB5R4 knockout cells; concentration not given; baseline: CYB5R4 knockout over parental).
With `liraglutide` the body weight was 566 ± 46 g (Wistar rat, female, diet-induced obese; dose not given, baseline before treatment).
Under “Emax of ACT ratio”, `heparin sodium` is recorded as 1.06 (human; intravenous infusion, 8 IU/kg/h, day 1 to 6; baseline: baseline).
`insulin degludec` has a C-peptide reduction of 63.2 ± 9.47% (euglycemic clamp; healthy human volunteers, C-peptide reduction at least 50%, serum; subcutaneous, 0.4 IU/kg; baseline: baseline).
`B1 (recombinant human GDNF)` — result for “TH-immunoreactive cell ratio”: 30.5 ± 5.1% (CNN cell counting, measured: tyrosine hydroxylase; rat, 6-OHDA lesion model, substantia nigra pars compacta; 3 µg/24 h; baseline: lesioned over intact side).
For `ESGRRVLVYSCRHGYELQG`, “interferon gamma secretion” read > 1000 pg/mL (Luminex, measured: IFN-γ; peptide, NOD-DR3 mice, peptide-immunized, splenocytes; dose not given, 48 h).
`maraviroc` has a fold change of 3.13 fold (ELISA, measured: sRAGE; mouse, HIV-infected, serum; intraperitoneal, 120 mg/kg twice daily, week 3 post infection; baseline: HIV-infected untreated).
For `icatibant`, the inhibition was 65.5 ± 3.61% (paw oedema; mouse; intraperitoneal, 1 mg/kg, first hour, together with: bradykinin).
`Pam2CSK4`: “OC-positive amyloid level” 0.776 and 1.48 and 0.96 (APP/PS1 mouse, cortex; local injection, dose not given, unit not given; baseline: injected over adjacent side).
For `B2 (interferon gamma)`, “urine albumin/creatinine ratio AUC” read 481 and 625 and 472 and 292 and 1910 and 348 and 533 (proteinuria inducer; FVB mice; dose not given, 0 to 72 h).
The MIC of `colistin` is reported as ≤ 1 µg/mL (Pseudomonas aeruginosa; clinical isolate RKI 369/11).
`cotadutide` has a metabolite level of 1.04 ± 0.05 scaled intensity (metabolomics, measured: hepatic serine; ob/ob mice on AMLN diet, NASH model, liver; dose not given).
For `semaglutide`, the body weight was 604 ± 22 g (DIO male Wistar rats; dose not given, 7 weeks).
`GWTLNSAGYLLGPHAVGNHRSFSDKNGLTS-NH2 (C-amide)` gave a mRNA level of 6.04 and 5.66 and 4.38 and 5.22 (RT-qPCR, measured: Tjp1; peptide, mouse, DSS-induced colitis, colon; ip, 3 µM, 3% DSS, unit not given; baseline: Gapdh).
The spontaneous alternation of `KCNTATCATQRLANFLVHSSNNFGPILPPTNVGSNTY (Pramlintide; sequence looked up)` is reported as 64 ± 1.34% (Y maze; peptide, Tg2576 mouse; intraperitoneal, dose not given, 10 weeks daily).
